Measured values from different studies.
Lines come from different studies, so protocols differ. Several values in a cell are separate wells, animals, samples, runs or records. Numbers after ± are the reported error.

NC(=O)c1cccc(NC(=O)c2cc(O)n(-c3ccccc3)n2)c1
CC50 (HeLa; cell growth or viability): > 50 µM

Cc1cc(=O)c2c(O)c3c(O[C@@H]4O[C@H](CO)[C@@H](O)[C@H](O)[C@H]4O)cc(O)cc3cc2o1
cell viability (HepaRG co-cultured with HK-2; MTT; 33.33 µM, 24 h; relative to: untreated control): 101 ± 10.1%

CN1CCCNC(=O)c2cccc(c2)C(=O)NCCCN(C)CCCNc2cccc3c2C(=O)c2cccc(c2C3=O)NCCC1
viability (HeLa; cell growth or viability, CCK-8; 15 µM, 48 h): 3.32%

O=C(Nc1ccc([C@H]2[C@@H](F)[C@@H](F)C[C@@H](F)[C@H]2F)cc1)C1CC1
hepatic clearance (liver microsome stability; cynomolgus liver microsomes; 1 µM): 4.9 mL/min/kg

COc1cc(/C=C/C=C2\SC(=S)NC2=O)ccc1O
viability (HEK-293T; CellTiter-Glo; 40 µM, 24 h, unit not given; relative to: untreated): 0.983 and 1.05

CC(=O)N[C@H](C(=O)N[C@H](C(=O)N[C@@H](CCCNC(=N)N)C(=O)N[C@@H](CC(N)=O)C(=O)N[C@@H](CC(=O)O)C(=O)N[C@H](C(=O)N1CCC[C@@H]1C(=O)N1CCC[C@H]1C(=O)N[C@@H](CC(=O)O)C(=O)N[C@@H](CO)C(=O)N[C@@H](CC(C)C)C(=O)N[C@@H](CC(C)C)C(=O)N[C@H](C(=O)N[C@@H](Cc1ccccc1)C(N)=O)C(C)C)C(C)C)[C@@H](C)O)C(C)C
concentration (HEK-293T; subcellular fractionation LC-MS; cytoplasmic fraction; 20 µM, 24 h): not detected

Cc1cc(C(=O)Nc2cccc(C(N)=O)c2)n(Cc2ccccc2)n1
CC50 (HeLa; cell growth or viability): > 50 µM

CC(C)C[C@@H]1NC(=O)[C@H](CO)NC(=O)[C@H](CC(=O)O)NC(=O)[C@@H]2CCCN2C(=O)[C@H]2CCCN2C(=O)[C@H](C(C)C)NC(=O)[C@H](CC(=O)O)NC(=O)[C@H](CC(N)=O)NC(=O)[C@H](CCCNC(=N)N)NC(=O)[C@H]([C@@H](C)O)NC(=O)[C@H](C(C)C)NC(=O)CCNC(=O)CCNC(=O)[C@H](Cc2ccccc2)NC(=O)[C@H](C(C)C)NC(=O)[C@H](CC(C)C)NC1=O
concentration (HEK-293T; subcellular fractionation LC-MS; cytoplasmic fraction; 20 µM, 2 h): not detected

NC(=O)c1cccc(NC(=O)c2cc(-c3ccc4c(c3)OCCO4)n(-c3ccccc3)n2)c1
CC50 (HeLa; cell growth or viability): > 100 µM

O=C1NC2(CC2)COc2ncc(F)cc2[C@H]2COCCN2c2ccn3ncc1c3n2
polyploid cells (CHL; chromosomal aberration test; 10 µg/mL, 24 h, without S9): 0%

O=C(CCC(F)(F)F)Nc1ccc(C2CCCCC2)cc1
hepatic clearance (liver microsome stability; dog liver microsomes; 1 µM): 28 mL/min/kg

Excerpt of the above:
CC(=O)N[C@H](C(=O)N[C@H](C(=O)N[C@@H](CCCNC(=N)N)C(=O)N[C@@H](CC(N)=O)C(=O)N[C@@H](CC(=O)O)C(=O)N[C@H](C(=O)N1CCC[C@@H]1C(=O)N1CCC[C@H]1C(=O)N[C@@H](CC(=O)O)C(=O)N[C@@H](CO)C(=O)N[C@@H](CC(C)C)C(=O)N[C@@H](CC(C)C)C(=O)N[C@H](C(=O)N[C@@H](Cc1ccccc1)C(N)=O)C(C)C)C(C)C)[C@@H](C)O)C(C)C
concentration (HEK-293T; subcellular fractionation LC-MS; cytoplasmic fraction; 20 µM, 24 h): not detected
